Measurements gathered from unrelated publications.
Each line is one published result; not all experiments were run side by side. Numbers after ± are the reported error. Converted amounts (≈) assume the structure as drawn.

Structure (SMILES) | test | system | setting | how to read | measurement | value
C=C1C(=O)O[C@@H]2C[C@H](C)[C@@H]3C[C@H](OC(C)=O)[C@H](OC(C)=O)[C@@]3(C)C[C@H]12 | propidium iodide flow cytometry | primary splenocytes, BALB/c mouse | 48 h, 10% fetal calf serum |  | CC50 | 84.4 ± 3.8 µg/mL
[11CH3]n1c(=O)n(CCCO)c(=O)c2c1nc(Oc1cccc(OC(F)(F)F)c1)n2Cc1ccc(Cl)cc1 | ex vivo biodistribution | Sprague Dawley rat, muscle | 30 min post injection |  | tracer uptake | 0.5 ± 0.02 %ID/g
CC[C@H](C)[C@@H]1NC(=O)[C@H](CCCCN)NC(=O)[C@H](CCCCN)NC(=O)[C@H](Cc2ccc(O)cc2)NC(=O)[C@H](CC(C)C)NC(=O)[C@@H]2CCCN2C(=O)[C@H](C)NC(=O)CNC(=O)CNC(=O)[C@H](CO)NC(=O)CNC(=O)CNC(=O)[C@H](CO)NC(=O)[C@H](CCC(=O)O)NC(=O)[C@H](CC(C)C)NC(=O)[C@H](CC(C)C)NC(=O)[C@H](CCCCN)NC(=O)[C@H](CCCCN)NC(=O)[C@H]([C@@H](C)CC)NC(=O)[C@H]([C@@H](C)CC)NC(=O)[C@H](CCCCN)NC(=O)[C@H](CCCCN)NC(=O)[C@H](Cc2ccc(O)cc2)NC(=O)[C@H](CC(C)C)NC(=O)[C@@H]2CCCN2C(=O)[C@H](C)NC(=O)CNC(=O)[C@@H]2CSSC[C@H](NC(=O)[C@H](CC(C)C)NC(=O)[C@H](CCCCN)NC(=O)[C@H](CCCCN)NC(=O)[C@H]([C@@H](C)CC)NC1=O)C(=O)N[C@@H](CCC(N)=O)C(=O)N[C@@H](CC(N)=O)C(=O)NCC(=O)N2 | hemolysis | uninfected human erythrocytes | 1 h |  | HC10 | > 128 µM
CCCCCCCC(=O)SCC/C=C/[C@@H]1CC(=O)NCc2nc(cs2)C2=N[C@@](C)(CS2)C(=O)N[C@@H](C(C)C)C(=O)N1 |  | mouse NIH Swiss, female | intravenous, 5 mg/kg |  | alpha half-life | 2.8 min
CC[C@H](C)[C@H](NC(=O)[C@H](CC(=O)O)NC(=O)[C@H](CO)NC(=O)[C@H](CCC(N)=O)NC(=O)[C@H](C)NC(=O)[C@H](CC(=O)O)NC(=O)[C@H](CCC(=O)O)NC(=O)[C@H](Cc1c[nH]cn1)NC(=O)[C@H](Cc1ccc(O)cc1)NC(=O)[C@H](C)NC(=O)[C@H](CC(=O)O)NC(=O)[C@H](CCC(=O)O)NC(=O)[C@H](Cc1c[nH]cn1)NC(=O)[C@H](Cc1ccc(O)cc1)NC(=O)[C@H](C)NC(=O)[C@H](CC(=O)O)NC(=O)[C@H](CCC(=O)O)NC(=O)[C@H](Cc1c[nH]cn1)NC(=O)[C@H](Cc1ccc(O)cc1)NC(=O)[C@H](C)NC(=O)[C@H](CC(=O)O)NC(=O)[C@H](CCC(=O)O)NC(=O)[C@H](Cc1c[nH]cn1)NC(=O)[C@H](Cc1ccc(O)cc1)NC(=O)[C@H](C)NC(=O)[C@H](CC(=O)O)NC(=O)[C@H](CCC(=O)O)NC(=O)[C@H](Cc1c[nH]cn1)NC(=O)[C@@H](N)Cc1ccc(O)cc1)C(=O)N[C@H](C(=O)N[C@@H](C)C(=O)N[C@@H](Cc1c[nH]cn1)C(=O)N[C@@H](CC(C)C)C(=O)N[C@@H](CC(C)C)C(=O)O)C(C)C |  | normal mouse | dose not given |  | RDW | 24.6 ± 3.1%
CC(CCC(=O)NCC(=O)O)C1CCC2C3C(O)CC4CC(OC5OC(C(=O)O)C(O)C(O)C5O)CCC4(C)C3CCC12C (centres unmarked) |  | human, SLCO1B1 *5/*15, plasma | geometric mean, sex-adjusted |  | plasma concentration | 166 ng/mL
CC(C)(CCCC/C=C/CCCCCC(C)(C)C(=O)O)C(=O)O |  | ICR mouse, plasma | intravenous, 10 mg/kg |  | volume of distribution (Vss) | 0.33 L/kg
Cc1cnc(-c2ncn3c(=O)n(C)nnc23)o1 |  | mouse CD-1 male, liver microsomes | 50 µM, 2 h, pH 7.4 | reference: time zero | remaining compound | 71 ± 1%
COc1ccc2sc3c(c2c1)SCCNC3=O |  | mouse | intravenous, 25 mg/kg |  | Vd | ~1.94 L/kg
CC[C@@H]1C[C@]1(NC(=O)[C@@H]1C[C@@]2(CN1C(=O)[C@@H](NC(=O)[C@@H](NC(=O)[C@@H]1CCCCN1C(C)C)C1CCCCC1)C(C)(C)C)C(C)(C)C21CCC1)C(=O)NS(=O)(=O)N1CCCC1 | item: Diarrhea | healthy human | oral, 10 mg, with: ritonavir 100 mg |  | subjects with adverse event | 0%
CN[C@](C)(C[18F])C(=O)O |  | SCID mouse MDA-MB-468 xenograft, brain | 60 min, post injection |  | tissue uptake | 0.2 ± 0.04 %ID/g
CSCC[C@@H]1NC(=O)[C@@H]2CSSC[C@H](NC(=O)[C@H](CO)NC(=O)[C@H](C)N)C(=O)N[C@@H](CCCNC(=N)N)C(=O)N[C@@H]([C@@H](C)O)C(=O)N3CCC[C@H]3C(=O)N[C@@H](CCCCN)C(=O)N[C@@H](CC(=O)O)C(=O)N[C@H]3CSSC[C@H](NC(=O)[C@H](CCCCN)NC(=O)[C@H](CCCNC(=N)N)NC(=O)[C@H](CC(N)=O)NC1=O)C(=O)N[C@@H](CCCCN)C(=O)N[C@H]1CSSC[C@H](NC(=O)[C@@H]4CCCN4C(=O)[C@H](CC(=O)O)NC(=O)[C@H](C)NC3=O)C(=O)N[C@@H](C)C(=O)N[C@@H](CCCCN)C(=O)N[C@@H](CCC(=O)O)C(=O)N[C@@H]([C@@H](C)O)C(=O)NCC(=O)N[C@@H](CSSC[C@@H](C(N)=O)NC(=O)[C@H](CCCNC(=N)N)NC(=O)[C@H](CC(N)=O)NC1=O)C(=O)N1CCC[C@H]1C(=O)N[C@@H](Cc1ccc(O)cc1)C(=O)NCC(=O)N[C@@H](CCCCN)C(=O)N2 |  | DA rat, pristane-induced arthritis, serum | subcutaneous, single 0.1 mg/kg at onset, end of 21-day trial |  | osmolality | 264 mOsm/kg
CC(Nc1c(-c2c(F)cc(OCCCN(C)C)cc2F)c(Cl)nc2ncnn12)C(C)(C)C (centres unmarked) |  | BALB/c mice, male and female | intraperitoneal, 48 h |  | lowest dose causing intolerance | > 17 mg/kg
CCNc1cc2[o+]c3cc(NCC)c(C)cc3c(-c3ccccc3C(=O)OCCOCC[18F])c2cc1C |  | rat | 30 min | reference: heart over lung | tissue uptake ratio | 2.3
O=C(O)CC[C@H](NC(=O)O[C@@H](CCCCNC(=O)c1ccc([18F])cc1)C(=O)O)C(=O)O |  | mouse, PC-3 PIP/flu xenografts, liver | 30 min |  | tissue uptake | 11 ± 1.77 %ID/g
C=Cc1cc(O)cc2nc(-c3ccc(O)c([76Br])c3)oc12 |  | female C57BL/6 mouse, lung | 1 h, low dose |  | tissue uptake | 0.33 ± 0.05 %ID/g

Structure (SMILES) | test | system | setting | how to read | measurement | value
[11CH3]Oc1ccc(C(=O)Nc2cc(-c3ccc(I)cc3)no2)cc1 |  | mouse, blood | intravenous, 20 min |  | parent compound fraction | 31 ± 11%
C[C@@H]1CC[C@H]2[C@@H](C)CO[C@@H]3O[C@@]4(C)CC[C@@H]1[C@]32OO4 | item: compound | rat, plasma | 2.00 ng/mL spiked, three freeze/thaw cycles |  | stability accuracy | 102%
CC[C@H](C)[C@H](NC(=O)[C@H](CO)NC(=O)[C@H](CCC(N)=O)NC(=O)[C@H](CCCNC(=N)N)NC(=O)[C@H](CC(C)C)NC(=O)[C@H](CO)NC(=O)[C@H](CC(C)C)NC(=O)[C@@H](N)CCSC)C(=O)N[C@@H](CCCNC(=N)N)C(=O)N[C@@H](Cc1ccccc1)C(=O)N[C@@H](Cc1ccccc1)C(=O)N[C@@H](CCCCN)C(N)=O |  | water | 0.167 min |  | thermodynamic solubility | 9.07 mM (≈ 13.8 mg/mL)
CC[C@H](C)C(=O)N1CCC(NC(=O)Nc2ccc(OC(F)(F)F)c(F)c2)CC1 |  | healthy volunteers | oral, 24 mg single dose |  | subjects with trichomoniasis TEAE | 0%
Cc1ncsc1-c1ccc(CNC(=O)[C@@H]2C[C@@H](O)CN2C(=O)[C@@H](NC(=O)Cc2ccc(-c3ccc(CNC(=O)c4cc5c(cc4CS(C)(=O)=O)-c4cn(C)c(=O)c6[nH]cc(c46)CN5c4ncc(F)cc4F)cc3)cc2)C(C)(C)C)cc1 |  | Sf9 cell culture medium |  |  | kinetic solubility | < 0.00156 mM
N=C(N)NCc1ccc(C(=O)NCCCC[C@H](NC(=O)N[C@@H](CCC(=O)O)C(=O)O)C(=O)O)cc1[131I] |  | SCID mouse, PC-3 xenografts, blood | 4 h |  | tissue uptake | 0.14 ± 0.06 %ID/g
CN(C)C(CNC(=O)Nc1cc(C(F)(F)F)ccc1N1CCOCC1)c1ccncc1 (centres unmarked) |  | mouse, serum | intraperitoneal, 180 mg/kg single dose |  | serum AST | 539 U/L
C[C@H](O)[C@@H](NC(=O)[C@H]1CCCN1C(=O)[C@@H](CCCCN)NC(=O)[C@@H](CO)NC(=O)[C@@H](Cc1ccc(O)cc1)NC(=O)[C@@H](CC(N)=O)NC(=O)CCOCCOCCOCCNC(=O)CN1CCN(CC(=O)O)CCN(CC(=O)O)CCN(CC(=O)O)CC1)C(=O)N[C@H](CC(=O)O)C(=O)N[C@H](CCCNC(=N)N)C(=O)N[C@H](CCC(N)=O)C(=O)N[C@H](Cc1ccc(O)cc1)C(=O)N[C@H](Cc1c[nH]cn1)C(=O)N[C@H](Cc1ccccc1)C(N)=O [copper-64 labelled] | item: red blood cells, haematocrit, platelets | C57BL/6J mice | intravenous, 3 mCi per mouse, days 1, 15, 30 | reference: control | haematological parameters | no effect
CC(C)[C@H](NC(=O)CNC(=O)[C@H](CCC(N)=O)NC(=O)[C@H](C)N)C(=O)O | any adverse event | human | 30 mg/kg, 3 days, thrice daily dosing |  | subjects with adverse events | 71.4%
COc1ccc(NC(=O)Cn2c(=O)c3ccccc3n(CC(=O)Nc3cc([125I])c(OC)cc3OC)c2=O)cc1 |  | rat, pancreas | intravenous, 5 min |  | tracer uptake | 0.4 %ID/g
CC(C)[C@@H]1NC(=O)[C@H](Cc2ccccc2)NC(=O)[C@H](Cc2ccc(O)cc2)NC(=O)CCSSC[C@@H](C(=O)N2CCC[C@H]2C(=O)N[C@H](CCCNC(=N)N)C(=O)NCC(N)=O)NC(=O)[C@H](CCC(N)=O)NC1=O |  | Wistar rat, blood | intravenous, 100 µg/kg single dose, 72 h |  | GGT | 3.6 ± 0.9 IU/L
C[C@]12CC[C@H](OCC[18F])C[C@H]1CC[C@@H]1[C@@H]2CC[C@]2(C)[C@@H](c3ccc(=O)oc3)CC[C@]12O | radio-HPLC | PBS | 10 h, pH 7.2, room temperature |  | radiochemical purity | 99%
CC1(C)C(=CC=CC=CC2=[N+](CCCCN=[N+]=[N-])c3ccc(S(=O)(=O)[O-])cc3C2(C)C)N(CCCCCC(=O)O)c2ccccc21 |  | PBS | concentration not given | reference: DMSO | molar absorptivity reduction | 13%
COc1ccc(-c2oc3ccc(-c4cc(OC)c(OC)c(OC)c4)cc3c2C#CC2(O)CCCCC2)cc1 | metabolic stability | mouse, liver microsomes |  |  | half-life | > 30 min
O=C(Cc1ccc2ccccc2c1)N[C@H](Cc1ccccc1)C(=O)N[C@H](Cc1ccc(O)cc1)C(=O)N[C@H](Cc1ccccc1)C(=O)N[C@H](Cc1ccc(OP(=O)(O)O)cc1)C(=O)O | substrate | SAOS-2 cell lysate | 500 µM, 1 h, pH 7.4, 37 °C |  | dephosphorylation | > 40%
Cc1ncc2c(n1)CN(C(=O)Nc1nc(-c3cccs3)ccc1N)C2 |  | beagle dog, male | oral, 14 days daily |  | NOAEL | 120 mg/kg
